# Measurements from different studies.
# Lines come from different studies, so protocols differ. “And” joins repeats or separate records; there may be more than shown. ± gives the spread as reported.
# Mannan-binding lectin serine protease 2: Mannan-binding lectin serine protease 2 (Homo sapiens, UniProt O00187)
# Sigmar1: Sigma non-opioid intracellular receptor 1 (Sigmar1, Rattus norvegicus, UniProt Q9R0C9)
# MC1R: Melanocyte-stimulating hormone receptor (MC1R, Homo sapiens, UniProt Q01726)
# Oprk1: Kappa-type opioid receptor (Oprk1, Rattus norvegicus, UniProt P34975)
SMILES,target,test,test system,conditions,Ki
CC[C@H](C)[C@H](NC(=O)[C@@H]1CSSC[C@H](NC(=O)[C@H](Cc2ccc(O)cc2)NC(=O)CNC(C)=O)C(=O)N[C@@H](CO)C(=O)N[C@@H](CCCNC(=N)N)C(=O)N[C@@H](CO)C(=O)N[C@@H](Cc2ccc(O)cc2)C(=O)N2CCC[C@H]2C(=O)N2CCC[C@H]2C(=O)N[C@@H](C(C)C)C(=O)N1)C(=O)N1CCC[C@H]1C(=O)N[C@@H](CC(=O)O)C(=O)O,Mannan-binding lectin serine protease 2,,,together with: 250 µM Z-L-Lys-SBzl substrate,200 ± 10 nM
CCC(=O)c1ccc2c(c1)sc(=O)n2CCCCCN1CCCCCC1,Sigmar1,"binding, radioligand binding",rat liver membranes,together with: [3H](+)-pentazocine 5 nM,12.2 ± 1.1 nM
CCCN(CCC)CC1CCCCN1CCNC(=O)N1c2ccccc2C(=O)Nc2cccnc21 (stereo not drawn),"CHRM3 (Homo sapiens, UniProt P20309)","cell-free assay, radioligand",,,155 nM
CC[C@H](C)[C@H](NC(=O)[C@@H]1CSCC(=O)NCC[C@H](NC(=O)[C@H](Cc2ccc(O)cc2)NC(=O)CNC(C)=O)C(=O)N[C@@H](CO)C(=O)N[C@@H](CCCNC(=N)N)C(=O)N[C@@H](CO)C(=O)N[C@@H](Cc2ccc(O)cc2)C(=O)N2CCC[C@H]2C(=O)N2CCC[C@H]2C(=O)N[C@@H](C(C)C)C(=O)N1)C(=O)N1CCC[C@H]1C(=O)N[C@@H](CC(=O)O)C(N)=O,Mannan-binding lectin serine protease 2,,,together with: 250 µM Z-L-Lys-SBzl substrate,57000 ± 2000 nM
C[C@]12CC[C@@H]3c4cc(Cl)c(O)c(Cl)c4CC[C@H]3[C@@H]1CCC2=O,"AKR1C1 (Homo sapiens, UniProt Q04828)","enzyme activity, inhibitor, absorbance",,,690 nM
C[n+]1cn([C@@H]2O[C@H](COP(=O)([S-])OP(=O)(O)OP(=O)(O)OP(=O)([S-])OC[C@H]3O[C@@H](n4c[n+](C)c5c(O)nc(N)nc54)[C@H](O)[C@@H]3O)[C@@H](O)[C@H]2O)c2nc(N)nc(O)c21 (stereo partly drawn),"mRNA decapping complex subunit 2 (dcp2, Schizosaccharomyces pombe, UniProt O13828)","mRNA decapping, inhibitor",,"single turnover, free enzyme, together with: Dcp2 alone, capped 29-nt RNA",121000 ± 16000 nM
CC[C@H](C)[C@H](NC(=O)CN)C(=O)N[C@H](C(=O)N[C@@H](CC(N)=O)C(=O)N[C@H](C(=O)N[C@@H](CC(C)C)C(=O)N[C@@H](CCC(N)=O)C(=O)N[C@@H](CCCCN)C(=O)N[C@@H](Cc1ccc(O)cc1)C(=O)N[C@@H](Cc1ccc(O)cc1)C(=O)N[C@H]1CSSC[C@@H]2NC(=O)[C@H](CCCCN)NC(=O)[C@H](CCCNC(=N)N)NC(=O)CNC(=O)[C@H](CCCNC(=N)N)NC(=O)[C@H]([C@@H](C)O)NC(=O)[C@H](CO)NC(=O)[C@@H]3CSSC[C@H](NC(=O)[C@H](CCC(N)=O)NC(=O)CNC(=O)CNC(=O)[C@H](CCC(N)=O)NC(=O)[C@H](C(C)C)NC(=O)[C@H](CCCNC(=N)N)NC1=O)C(=O)N[C@@H](C)C(=O)N[C@@H](C(C)C)C(=O)N[C@@H](CC(C)C)C(=O)N[C@@H](CO)C(=O)N[C@@H](CSSC[C@@H](C(=O)N[C@@H](CCC(N)=O)C(=O)N[C@@H](CCC(N)=O)C(=O)N[C@@H](CCC(N)=O)C(=O)N[C@@H](CCC(N)=O)C(N)=O)NC2=O)C(=O)N[C@@H](CC(C)C)C(=O)N1CCC[C@H]1C(=O)N[C@@H](CCC(N)=O)C(=O)N[C@@H](CCC(=O)O)C(=O)N[C@@H](CCC(=O)O)C(=O)N[C@@H](CCC(N)=O)C(=O)N[C@@H]([C@@H](C)CC)C(=O)NCC(=O)N[C@@H](CCCCN)C(=O)N3)[C@@H](C)O)[C@@H](C)CC,MC1R,ligand displacement in cells,,,422 nM
CCCc1ccc2c(c1)sc(=O)n2CCCCCCN1CCCCCC1,Sigmar1,"binding, radioligand binding",rat liver membranes,together with: [3H](+)-pentazocine 5 nM,6.3 ± 0.9 nM
CCCCCCCC[C@@H](O)[C@H](C)C(=O)N[C@H](CCC(=O)O)C(=O)N[C@H](CC(=O)O)C(=O)N[C@H](CC(C)C)C(=O)N[C@H](CC(C)C)C(=O)N[C@H](CC(C)C)C(=O)N[C@H](CC(C)C)C(=O)N[C@@H](C(=O)O)C(C)C,"Mediator of RNA polymerase II transcription subunit 25, ACID domain; with ATF6α (Homo sapiens, UniProt Q71SY5)",fluorescence polarization,,together with: NP40 or Triton X-100,no effect
CC(=O)N[C@@H](CCCNC(=N)N)C(=O)N[C@@H](Cc1ccc(O)cc1)C(=O)N[C@@H](CCCNC(=N)NC(=O)NCCCCN)C(=O)N[C@@H](CC(C)C)C(=O)N[C@H](CCCNC(=N)N)C(=O)N[C@@H](Cc1ccc(O)cc1)C(N)=O,"NPY1R (Homo sapiens, UniProt P25929)","ligand displacement, radioligand",,,> 5000 nM
CCCCCCCCCCCCCCN(O)C(=O)CCCCC[C@@H]1NC(=O)[C@H]2CCCN2C(=O)[C@H](Cc2ccccc2)NC(=O)[C@H](Cc2ccccc2)NC1=O,"HDAC11 (Homo sapiens, UniProt Q96DB2)","enzyme activity, inhibitor, fluorescence",,,2.1 nM
O=C(CCS(=O)O)c1ccccc1,"Beta-lactamase (ampC, Escherichia coli K-12, UniProt P00811)",,,,70000 nM
CC(Cc1ccccc1Sc1ccccc1)N(C)C (stereo not drawn),"SLC6A2 (Homo sapiens, UniProt P23975)","ligand displacement in cells, radioligand",,,215 nM
CC(=O)N(C)[C@@H](Cc1ccccc1)C(=O)N[C@@H](Cc1ccccc1)C(=O)N[C@@H](Cc1ccc(O)cc1)C(=O)N[C@@H](CCCNC(=N)N)C(=O)N[C@@H](CC(C)C)C(=O)N[C@@H](CCCNC(=N)N)C(=O)N[C@@H](CCCNC(=N)N)C(=O)N[C@H](C)C(=O)N[C@@H](CCCNC(=N)N)C(=O)N1CCC[C@H]1C(=O)N[C@@H](CCCCN)C(N)=O,Oprk1,"ligand displacement, radioligand",,,37.3 nM
COC1CC(=O)N(C)C=CCCCC(=O)N(C)C(C(C)C)C(=O)N(C)C(CC(C)C)C(=O)OC(C(C)C)CC(C)C1 (stereo not drawn),"TACR2 (Homo sapiens, UniProt P21452)","ligand displacement, radioligand",,,1200 nM
CC[C@H](C)[C@H](NC(=O)[C@H](CCCNC(=N)N)NC(=O)[C@H](CCCNC(=N)N)NC(=O)[C@@H]1C/C=C/COc2ccc(cc2)C[C@H](NC(=O)[C@H](Cc2ccccc2)NC(=O)[C@H](Cc2ccccc2)NC(C)=O)C(=O)N[C@@H](CCCNC(=N)N)C(=O)N1)C(=O)N[C@@H](CCCNC(=N)N)C(=O)N1CCC[C@H]1C(=O)N[C@@H](CCCCN)C(N)=O,Oprk1,"ligand displacement, radioligand",,,398 nM
CCCCCCCCCCCCCCCc1ccc(COP(O)(O)=S)cc1,"Autotaxin (ENPP2, Homo sapiens, UniProt Q13822)",,,free enzyme,4450 nM
COCCN1COc2c(cc3c4c(c(=O)oc3c2C)CCC4)C1,"ache (Electrophorus electricus, UniProt O42275)","enzyme activity, inhibitor",,,270 nM
CCC(=O)c1ccc2c(c1)sc(=O)n2CCCN1CCCCCC1,Sigmar1,"binding, radioligand binding",rat liver membranes,together with: [3H](+)-pentazocine 5 nM,3.7 ± 0.3 nM
CC[C@H](C)CN(C[C@@H](O)[C@H](Cc1ccccc1)NC(=O)c1cccc(O)c1)S(=O)(=O)c1ccc2ncsc2c1,"Gag-Pol polyprotein, protease (Human immunodeficiency virus type 1 group M subtype B, UniProt P03369, G538V/I544V/L500I/V572A)",,,,0.724 ± 0.377 nM
C=C[C@@]1(C)CC(=O)[C@]2(O)[C@@]3(C)[C@@H](O)CCC(C)(C)[C@@H]3[C@H](OC(C)=O)[C@H](OC(C)=O)[C@@]2(C)O1,"SLC2A1 (Homo sapiens, UniProt P11166)","ligand displacement, radioligand",,cell membranes,949 nM
CC(C)[C@H](NC(=O)c1ccc(CCc2nc3c(c(=O)[nH]2)CCC3)cc1)C(=O)NC1COC1,"Collagenase 3 (MMP13, Homo sapiens, UniProt P45452)","enzyme activity, inhibitor",,,12.2 nM and 12 nM
CC[C@H](C)[C@H](NC(=O)CN)C(=O)N[C@H](C(=O)N[C@@H](CC(N)=O)C(=O)N[C@H](C(=O)N[C@@H](CC(C)C)C(=O)N[C@@H](CCC(N)=O)C(=O)N[C@@H](CCCCN)C(=O)N[C@@H](Cc1ccc(O)cc1)C(=O)N[C@@H](Cc1ccc(O)cc1)C(=O)N[C@H]1CSSC[C@@H]2NC(=O)[C@H](CCCCN)NC(=O)[C@H](CCCNC(=N)N)NC(=O)CNC(=O)[C@H](CCCNC(=N)N)NC(=O)[C@H]([C@@H](C)O)NC(=O)[C@H](CO)NC(=O)[C@@H]3CSSC[C@H](NC(=O)[C@H](CCCNC(=N)N)NC(=O)CNC(=O)CNC(=O)[C@H](CCCNC(=N)N)NC(=O)[C@H](C(C)C)NC(=O)[C@H](CCCNC(=N)N)NC1=O)C(=O)N[C@@H](C)C(=O)N[C@@H](C(C)C)C(=O)N[C@@H](CC(C)C)C(=O)N[C@@H](CO)C(=O)N[C@@H](CSSC[C@@H](C(=O)N[C@@H](CCC(N)=O)C(=O)N[C@@H](CCC(N)=O)C(=O)N[C@@H](CCC(N)=O)C(=O)N[C@@H](CCC(N)=O)C(N)=O)NC2=O)C(=O)N[C@@H](CC(C)C)C(=O)N1CCC[C@H]1C(=O)N[C@@H](CCCCN)C(=O)N[C@@H](CCC(=O)O)C(=O)N[C@@H](CCC(=O)O)C(=O)N[C@@H](CCC(N)=O)C(=O)N[C@@H]([C@@H](C)CC)C(=O)NCC(=O)N[C@@H](CCCCN)C(=O)N3)[C@@H](C)O)[C@@H](C)CC,MC1R,ligand displacement in cells,,,193 nM
COC(=O)N(C)[C@@H](Cc1ccccc1)C(=O)N[C@@H](Cc1ccccc1)C(=O)N[C@@H](Cc1ccc2ccccc2c1)C(=O)N[C@@H](CCCNC(=N)N)C(=O)N[C@@H](CC(C)C)C(=O)N[C@@H](CCCNC(=N)N)C(=O)N[C@@H](CCCNC(=N)N)C(=O)N[C@H](C)C(=O)N[C@@H](CCCNC(=N)N)C(=O)N1CCC[C@H]1C(=O)N[C@@H](CCCCN)C(N)=O,Oprk1,"ligand displacement, radioligand",,,24.4 nM
